Published values collected from several papers.
Every numbered part comes from another study and shows a few of its results, in no order. Substitutions count along the parent as printed.

Block 1
Target: Histone acetyltransferase KAT6A, winged helix 2, GST fusion (KAT6A, Homo sapiens, UniProt Q92794, residues 85-181)
Method: protein binding microarray
Form: double-stranded DNA, one strand shown
Matrix: in vitro
Tested at: not given
Notes: 8-mer, flanks averaged, mean of 2 arrays, mostly near background
Reference: not given
Direction: higher = stronger binding
Target sequence (chain): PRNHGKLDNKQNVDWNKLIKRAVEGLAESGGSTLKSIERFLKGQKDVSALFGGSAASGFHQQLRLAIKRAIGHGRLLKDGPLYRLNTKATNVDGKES
Oligonucleotide | E-score
CTCAGCAG | 0.0552
GCCTTATA | -0.0429
ACACGCAT | 0.0469
ATTAAATC | 0.156
TCTAGTCA | -0.188
AGGAAATG | 0.0999
CACTAAAG | 0.112
AACACCAG | 0.0321
AGGAAGAT | -0.114
AAGAACGA | 0.155
TACAATGA | -0.222
ACGATTTG | -0.0535
ACCCGCCG | 0.203

Block 2
Target: Ras GTPase-activating protein-binding protein 1, full length (G3BP1, Homo sapiens, UniProt Q13283)
UniProt Q13283, sequence (whole entry, looked up): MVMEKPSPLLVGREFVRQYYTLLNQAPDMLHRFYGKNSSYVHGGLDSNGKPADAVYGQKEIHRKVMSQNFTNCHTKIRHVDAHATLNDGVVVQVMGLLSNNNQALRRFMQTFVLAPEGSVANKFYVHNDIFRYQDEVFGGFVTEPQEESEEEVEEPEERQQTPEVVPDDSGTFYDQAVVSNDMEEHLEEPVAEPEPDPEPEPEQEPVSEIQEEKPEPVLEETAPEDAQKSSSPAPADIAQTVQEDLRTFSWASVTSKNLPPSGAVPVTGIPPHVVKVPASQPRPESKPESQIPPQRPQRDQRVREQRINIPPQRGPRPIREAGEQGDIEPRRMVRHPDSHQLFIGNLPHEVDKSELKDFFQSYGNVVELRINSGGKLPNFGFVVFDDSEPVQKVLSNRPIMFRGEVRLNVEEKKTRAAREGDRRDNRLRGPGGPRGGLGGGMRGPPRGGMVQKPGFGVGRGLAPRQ
Method: RNA Bind-n-Seq
Form: RNA
Matrix: in vitro
Tested at: 200 nM
Notes: whole 134-nt RNA, ends assumed
Together with: 150 mM LiCl
Reference: input library
Direction: higher = stronger binding
All molecules: 7-deaza-guanosine replaces G
Oligonucleotide | log2 enrichment
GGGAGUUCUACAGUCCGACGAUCCCUCAAGUCCUGUGCUACACAUCGUAUGUACCGAAUCGGUUGGGUUGGUUGGAAAGUAUUAUGUUACGCCGUUCGGAUCUGCACUUCCAGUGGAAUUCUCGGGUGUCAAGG | -0.0198
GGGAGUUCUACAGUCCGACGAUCCAAGUCCUGUGCUACACAUCGUAUGUACCGAAUCGGAAAAAGGUGGUUUUUUUGGAAAGUAUUAUGUUACGCCGUUCGGAUCUGCACUUCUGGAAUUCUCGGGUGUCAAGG | -1.15
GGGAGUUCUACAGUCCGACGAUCAGUCCUGUGCUACACAUCGUAUGUACCGAAUCGGGAAAAAGGGAAAAAGGAAAAAGGGAAAGUAUUAUGUUACGCCGUUCGGAUCUGCACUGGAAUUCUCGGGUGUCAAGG | -0.598
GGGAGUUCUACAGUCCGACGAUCCAAGUCCUGUGCUACACAUCGUAUGUACCGAAUCGGAAAGGUUUUUUUGGAAAGGAAAGUAUUAUGUUACGCCGUUCGGAUCUGCACUUCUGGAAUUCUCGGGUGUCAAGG | -1.53
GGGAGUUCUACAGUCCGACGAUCGCAGGAAUUAAAAACAAAUGGAAAUGCUUCGGAUAGUGGCAGGGGUGGGGGUUGCUAAGGAAAGGGUGGGAUGGGAGUGGGUAAAGAGUUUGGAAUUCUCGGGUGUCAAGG | 0.113
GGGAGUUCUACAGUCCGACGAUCGCAGGAAGUAAAAACAAAUGGAAAUGCUUCGGAUAGUGGCAGGGGUGGGGGUUGCUAUGGAAAGGGUGGGAUGGGAGUGGGUAAAGAGUUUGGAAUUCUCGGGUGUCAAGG | -0.171

Block 3
Target: UBE2I UBC core domain (UniProt P63279)
Method: yeast two-hybrid
Matrix: yeast
Notes: mostly zero background
Reference: not given
Direction: higher = stronger interaction
B1: MYCBP2 RING domain (UniProt O75592); chain TSLKQDADDMCMICFTEALSAAPAIQLDCSHIFHLQCCRRVLENRWLGPRITFGFISCPICKNKINHIVLKD
B2: RLIM RING domain (UniProt Q9NVW2); chain SFGENDALKTCSVCITEYTEGNKLRKLPCSHEYHVHCIDRWLSENSTCPICRRAVLASGNRE
B3: RNF31 RING domain (UniProt Q96EP0); chain AFLRRLLAQECAVCGWALPHNRMQALTSCECTICPDCFRQHFTIALKEKHITDMVCPACGRPDLTDDTQLL
B4: TRIM31 RING domain (UniProt Q9BZY9); chain FVNKLQEEVICPICLDILQKPVTIDCGHNFCLKCITQIGETSCGFFKCPLCKTSVRKNAIRF
Sequence | lacZ reporter activity
B1 (MYCBP2 RING domain) | 0
B2 (RLIM RING domain) | 0
AEADPLGRFTCPVCLEVYEKPVQVPCGHVFCSACLQECLKPKKPVCGVCRSALAPGVRAV (RNF114 RING domain (UniProt Q9Y508)) | 0
B3 (RNF31 RING domain) | 0
B4 (TRIM31 RING domain) | 0
MNDVLENELQCIICSEYFIEAVTLNCAHSFCSYCINEWMKRKIECPICRKDIKSKTYSL (RNF8 RING domain (UniProt O76064)) | 0

Block 4
Target: ABI1, truncated, D143A, DHFR fusion (Arabidopsis thaliana)
Method: DHFR PCA, deep sequencing
Matrix: yeast
Notes: methotrexate growth selection, single substitutions
Together with: (+)-ABA 0.0091 µM
Reference: wild-type fitted maximum
Direction: higher = stronger binding
Starting sequence: PYL1, truncated, DHFR fusion (Arabidopsis thaliana); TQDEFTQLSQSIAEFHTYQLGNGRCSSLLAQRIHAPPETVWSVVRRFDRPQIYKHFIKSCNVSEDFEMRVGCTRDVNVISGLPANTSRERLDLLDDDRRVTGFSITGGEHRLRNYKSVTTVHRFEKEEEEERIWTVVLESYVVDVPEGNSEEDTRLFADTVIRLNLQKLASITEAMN; partner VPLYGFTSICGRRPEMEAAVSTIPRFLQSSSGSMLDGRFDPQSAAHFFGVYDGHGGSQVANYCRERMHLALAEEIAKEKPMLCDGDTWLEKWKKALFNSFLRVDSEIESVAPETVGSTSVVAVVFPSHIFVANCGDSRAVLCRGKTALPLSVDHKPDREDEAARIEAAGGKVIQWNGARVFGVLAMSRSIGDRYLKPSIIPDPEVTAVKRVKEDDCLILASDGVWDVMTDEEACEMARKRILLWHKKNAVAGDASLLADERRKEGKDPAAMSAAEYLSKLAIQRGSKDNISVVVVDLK
Variant | relative binding score
K54Y | -7.59%
G102L | -8.11%
M176Y | 1.51%
N22D | 43%
V142Y | -6.49%
L20P | 32.9%
T17I | 2.04%
E127Q | 50.9%
T173R | -1.19%
V62L | 16.2%
L166Y | -1.18%
T39W | -3.09%

Block 5
Target: Sal-like protein 4, full length isoform A (SALL4, Homo sapiens, UniProt Q9UJQ4, residues 1-1053)
UniProt Q9UJQ4, sequence (whole entry, looked up): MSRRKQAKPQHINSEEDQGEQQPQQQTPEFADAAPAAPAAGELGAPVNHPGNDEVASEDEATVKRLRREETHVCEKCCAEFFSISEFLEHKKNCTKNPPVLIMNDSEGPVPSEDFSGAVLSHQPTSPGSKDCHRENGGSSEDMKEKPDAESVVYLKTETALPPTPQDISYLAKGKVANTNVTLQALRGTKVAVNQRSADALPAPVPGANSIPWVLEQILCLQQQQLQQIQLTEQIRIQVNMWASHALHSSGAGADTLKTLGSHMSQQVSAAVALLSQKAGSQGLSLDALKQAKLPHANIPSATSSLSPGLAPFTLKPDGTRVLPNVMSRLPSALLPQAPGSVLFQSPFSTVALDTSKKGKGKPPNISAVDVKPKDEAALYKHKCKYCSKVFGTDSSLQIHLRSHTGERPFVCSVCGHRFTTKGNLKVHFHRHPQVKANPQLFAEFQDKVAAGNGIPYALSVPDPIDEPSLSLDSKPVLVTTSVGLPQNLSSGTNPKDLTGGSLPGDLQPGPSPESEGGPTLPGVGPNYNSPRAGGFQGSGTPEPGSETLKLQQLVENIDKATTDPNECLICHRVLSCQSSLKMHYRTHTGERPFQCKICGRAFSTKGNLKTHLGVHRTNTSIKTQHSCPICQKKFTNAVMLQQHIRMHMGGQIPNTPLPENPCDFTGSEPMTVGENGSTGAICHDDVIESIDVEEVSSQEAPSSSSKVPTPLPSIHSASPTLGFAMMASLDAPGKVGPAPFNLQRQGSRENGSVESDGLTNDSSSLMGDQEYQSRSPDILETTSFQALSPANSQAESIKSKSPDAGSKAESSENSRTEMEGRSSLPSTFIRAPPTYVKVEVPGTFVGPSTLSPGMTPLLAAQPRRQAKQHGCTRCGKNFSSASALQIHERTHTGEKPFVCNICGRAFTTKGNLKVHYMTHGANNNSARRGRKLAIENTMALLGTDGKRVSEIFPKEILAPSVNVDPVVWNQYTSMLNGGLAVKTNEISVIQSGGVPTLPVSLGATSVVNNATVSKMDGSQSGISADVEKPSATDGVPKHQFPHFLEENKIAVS
Method: universal PBM
Form: double-stranded DNA, one strand shown
Matrix: in vitro
Tested at: 600 nM
Notes: 8-mer, flanks averaged, mean of replicates
Direction: higher = stronger binding
Oligonucleotide | E-score
TTGCGAAA | 0.104
CTATGCGA | -0.148
AAATGTTG | 0.163
GAACCCTA | -0.0123
CGCTGAGA | -0.173
TGGAACAA | 0.173
CAAACCAG | -0.0924
AGGGCACT | -0.327
GAGAAAGA | 0.125
CATAGGAG | 0.0934
AAATCTAG | 0.0762
GGCCGGCC | -0.321
ACGATAGG | 0.131
AGAAAAGG | 0.115
CCACCGAG | -0.322

Block 6
Target: Centromere-binding protein 1, full length, His-tagged (CBF1, Saccharomyces cerevisiae, UniProt P17106, residues 1-351)
UniProt P17106, sequence (whole entry, looked up): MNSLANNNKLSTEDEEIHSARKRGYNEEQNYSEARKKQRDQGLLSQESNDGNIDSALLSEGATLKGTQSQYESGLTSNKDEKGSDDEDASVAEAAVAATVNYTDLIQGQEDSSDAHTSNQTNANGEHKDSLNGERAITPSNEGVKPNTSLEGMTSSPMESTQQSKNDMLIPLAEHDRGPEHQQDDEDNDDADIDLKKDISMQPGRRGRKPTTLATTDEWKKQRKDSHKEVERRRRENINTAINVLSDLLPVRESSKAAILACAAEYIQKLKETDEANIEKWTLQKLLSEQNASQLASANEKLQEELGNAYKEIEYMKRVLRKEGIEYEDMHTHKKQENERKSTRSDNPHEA
Method: competition protein-binding microarray
Form: double-stranded DNA, one strand shown
Matrix: in vitro
Tested at: 2 µM
Notes: whole 60-bp probe, lowest competitor level
Together with: Pho4 competitor, 0.05 µM
Direction: higher = stronger binding
Oligonucleotide | fluorescence intensity [a.u.]
GTCTTGTCTCATTGCAGAGTGGGTGTCCCCACTTCAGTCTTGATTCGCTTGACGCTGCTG | 80.3
GTCTTGTCTCATTGTCACGCGACTTTCCCCACTTCAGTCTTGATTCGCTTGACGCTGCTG | 560
CTTCTGTAAATTTGGGGCGTGGGTGGACGCGCCCCGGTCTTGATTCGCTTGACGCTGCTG | 88.4
CTAACGAAGGTTTTTCACGTGCCCTACAAGCCAAGTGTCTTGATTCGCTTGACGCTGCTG | 1190
AACCTTACAAAAAATCACATGACAACCTAACAAAATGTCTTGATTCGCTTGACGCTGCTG | 1740
AAATTACTAAGTTGGCGCGTGGGTGACGCCGTATGAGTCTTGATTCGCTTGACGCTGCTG | 64.8
GCCAAATCTGCCAGCTTCGTGATGGACATCAACAGAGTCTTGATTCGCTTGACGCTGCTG | 70.5
GGATGAAGTAGGAAACTCGTGAATATATAAACCCCGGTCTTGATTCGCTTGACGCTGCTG | 107
AAGATAAAAAACGGAAACGTGCTTTTTTAATTTAATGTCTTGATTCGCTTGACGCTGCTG | 248
CTAACGAAGGTTTGAGGGGTGGGTGACAAGCCAAGTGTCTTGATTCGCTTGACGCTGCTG | 68.9
TGCGCAACAACTTGCTAAGTGGGTGTATGTCTAGAAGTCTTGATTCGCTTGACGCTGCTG | 62.3
GAGCAGAGTGAAAAGCACGCAAAGAGACATAGTCGGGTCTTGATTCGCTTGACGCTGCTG | 53.5
ATGAAACGGAGCAGTCATATGATCAAAATACAGAATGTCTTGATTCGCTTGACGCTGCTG | 788
CGGGGTTAAGTTTGCGTAGTGGGTGGCTTGCAGCAGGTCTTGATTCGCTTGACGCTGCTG | 65.7

Block 7
Target: RING finger protein unkempt homolog, zinc fingers 1-6, SBP tag (UNK, Homo sapiens, UniProt Q9C0B0, residues 30-357)
UniProt Q9C0B0, sequence (30-357, looked up): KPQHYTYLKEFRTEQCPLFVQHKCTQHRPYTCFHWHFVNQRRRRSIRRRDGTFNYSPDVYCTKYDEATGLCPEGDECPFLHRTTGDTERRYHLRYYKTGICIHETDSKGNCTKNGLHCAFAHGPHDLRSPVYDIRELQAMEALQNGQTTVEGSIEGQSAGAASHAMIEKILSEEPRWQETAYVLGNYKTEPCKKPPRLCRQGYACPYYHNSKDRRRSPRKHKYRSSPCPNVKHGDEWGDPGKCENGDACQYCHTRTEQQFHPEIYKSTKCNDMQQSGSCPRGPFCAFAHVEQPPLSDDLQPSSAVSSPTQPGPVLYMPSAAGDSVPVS
Method: RNA Bind-n-Seq
Form: RNA
Matrix: in vitro
Tested at: 100 nM
Notes: RNA with constant flanks, vertebrate orthologous sites, ends assumed
Reference: input RNA pool
Direction: higher = stronger binding
Oligonucleotide | bound/input enrichment [ratio]
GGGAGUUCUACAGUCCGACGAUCACGCUUUGAUAUUAAAUUUGACAUAAAAAGCAGCUGAUUGUAAGCACAACUCUCUCCUCCUAGCCAUUUAAAAAGGUAAAAAACAAAAAAGAAAACCUACUAGUCUUGAACAAACUGUCACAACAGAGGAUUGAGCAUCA | 0.956
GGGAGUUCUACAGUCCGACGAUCCAUCUCUCAUUUUAUAUGUCCAAAAAUGGCUUUGAAUUUUAAGCAAUUACUAGUUUUAAUUAGCUCUGCCCUCAUGAAGUAUUAUUAUAAUUCACUUUAAACAGAUAUCUGUCUGAAUUACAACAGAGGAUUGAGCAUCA | 1.77
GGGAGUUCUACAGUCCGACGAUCCAUGACCUUGUUACUGUGAUAUUUUAAAUAUCCACAGUACUCACUUUUUCCAAAUGAUCCUAGUAAUUGCCUAGAAAUCUCUCUCUUACCUGUUAUUUAUCAAUUUUUCCCAGUAUUUUUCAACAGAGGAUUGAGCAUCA | 1.13
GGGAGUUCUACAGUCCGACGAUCUACCUUUUGUAGGCCAAAACCCUCCUUCUACUGCUUCUGCCAACUGGAAGCACAGAAAACUAGAAUUUCAUUUAUUUUGUUUAAAAAAAAAAAAAAAAAAUUGAUUUCUUGUAACAUUCACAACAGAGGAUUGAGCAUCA | 0.499
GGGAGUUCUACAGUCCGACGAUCAGAACUCUUGCAGUCUUAGAUGUUAUAAAAAUAUAUAUAUAUCUGAAUUGUAAGAGUUGUUAGCACAGUUUUUUUGUUUGUUUUUAAACACUUGUUUUGGGUACAAGGCAUUUCUGAAAUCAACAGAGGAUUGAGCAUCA | 0.58
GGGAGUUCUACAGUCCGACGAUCUUCAGGCACAACUGACUGGUUCACAGCUUCCCUUACAUAGUUAUCUAUCAAGUGCAAGUAUUGGUAAUUUUCAGGAAACAUCCAGGCAGUCAUCUUUAUCCUGUAGCUCAAUUCGAGAUUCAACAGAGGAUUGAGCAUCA | 0.913
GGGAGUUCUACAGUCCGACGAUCGCAUGCCCAUGCCACUGUCACCGAAAGCGAACCAUCACUUCUCAGAUUUCCGAGCUGUUGUAGUGUUUCCCAGUCCCUACCCUUCCCACCACUUUGAGAGAUGAACUGUCCUGAGUUGUUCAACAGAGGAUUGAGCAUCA | 0.695
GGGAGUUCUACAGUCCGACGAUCCCCUCUGAACCCCAUAUCUUCUGUUUCAUAGUGCAGAAGUAAUAUUUUCAAUUGUAAUAUUAGUGGACUUGUUUAAUUUUAGAGAAACUUUCAGUACAGAUACUGUGAGCUUACAUGGAACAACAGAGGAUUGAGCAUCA | 2.17

Repeated from above (block 6):
Oligonucleotide | fluorescence intensity [a.u.]
CTAACGAAGGTTTTTCACGTGCCCTACAAGCCAAGTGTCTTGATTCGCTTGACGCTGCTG | 1190
AACCTTACAAAAAATCACATGACAACCTAACAAAATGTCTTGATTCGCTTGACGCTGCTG | 1740
AAATTACTAAGTTGGCGCGTGGGTGACGCCGTATGAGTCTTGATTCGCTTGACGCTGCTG | 64.8
GCCAAATCTGCCAGCTTCGTGATGGACATCAACAGAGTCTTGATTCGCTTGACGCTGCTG | 70.5
GGATGAAGTAGGAAACTCGTGAATATATAAACCCCGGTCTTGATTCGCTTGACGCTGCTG | 107
AAGATAAAAAACGGAAACGTGCTTTTTTAATTTAATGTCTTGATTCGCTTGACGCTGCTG | 248
CTAACGAAGGTTTGAGGGGTGGGTGACAAGCCAAGTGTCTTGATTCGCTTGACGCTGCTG | 68.9
TGCGCAACAACTTGCTAAGTGGGTGTATGTCTAGAAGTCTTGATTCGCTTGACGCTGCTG | 62.3
GAGCAGAGTGAAAAGCACGCAAAGAGACATAGTCGGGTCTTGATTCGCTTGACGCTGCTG | 53.5
ATGAAACGGAGCAGTCATATGATCAAAATACAGAATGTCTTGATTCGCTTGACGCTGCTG | 788
CGGGGTTAAGTTTGCGTAGTGGGTGGCTTGCAGCAGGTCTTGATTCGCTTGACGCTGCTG | 65.7
